Measured values gathered from unrelated publications.
Protocols differ between the studies behind these lines.
Cell line: THP-1

| SMILES | assay | test system | setting | how to read | measurement | result |
| --- | --- | --- | --- | --- | --- | --- |
| CCNC(=O)Nc1ccc(S(=O)(=O)Oc2ccccc2CC)cc1 | cell growth or viability, MTT | – | 48 h | – | IC50 | 4000 nM |
| CC1CC(=O)N(CCCCN)N=C1c1ccc(NC(=O)N2Cc3ccncc3C2)cc1 (stereo not shown) | cell growth or viability, ATP luminescence | – | – | – | IC50 | 1.4 nM |
| COc1cccc(C2Nc3ccccc3C3=[O+][Cu-2]4([Cl])[O]c5c(cccc5OC)C=[N+]4N32)c1O (stereo not shown) | cell growth or viability, CCK-8 | – | – | – | IC50 | 200 nM |
| Nc1nc2c(ncn2[C@@H]2O[C@@H]3COP(=O)(O)O[C@H]4[C@@H](F)[C@H](n5cnc6c(=O)[nH]cnc65)O[C@@H]4CSP(=O)(O)O[C@@H]2[C@@H]3O)c(=O)[nH]1 | refers to: CXCL10 | – | 10 µM, 24 h | baseline: untreated | mRNA level | ~400 fold |
| CC1CC(=O)N(CCCN)N=C1c1ccc(NC(=O)N2Cc3ccncc3C2)cc1 (stereo not shown) | cell growth or viability, ATP luminescence | – | – | – | IC50 | 1.2 nM |
| COc1cc(O)cc(O)c1C(=O)/C=C/c1ccccc1 | antioxidant effect, OPT fluorometric glutathione, refers to: GSH/(GSH + GSSG) | cell extract | – | baseline: 1 = all glutathione reduced, higher = more antioxidant | Emax of redox index | 0.84 |
| CC1CC(=O)N(CCCCCCN)N=C1c1ccc(NC(=O)N2Cc3ccncc3C2)cc1 (stereo not shown) | cell growth or viability, ATP luminescence | – | – | – | IC50 | 0.0045 nM |
| Oc1ccccc1C1Nc2ccccc2C2=[O+][Cu-2]3([Cl])[O]c4ccccc4C=[N+]3N21 (stereo not shown) | cell growth or viability, CCK-8 | – | – | – | IC50 | 300 nM |
| CC(C)C[C@H](NC(=O)[C@H](CO)NC(=O)[C@H](CCCNC(=N)N)NC(=O)[C@H](CCCCN)NC(=O)[C@@H](NC(=O)[C@@H](NC(=O)CNC(=O)[C@H](CCCNC(=N)N)NC(=O)[C@H](Cc1c[nH]cn1)NC(=O)[C@H](Cc1c[nH]c2ccccc12)NC(=O)[C@H](Cc1ccccc1)NC(=O)[C@H](Cc1c[nH]cn1)NC(=O)[C@H](Cc1ccc(O)cc1)NC(=O)[C@@H](N)Cc1ccc(O)cc1)C(C)C)[C@@H](C)O)C(=O)N[C@@H](CO)C(=O)N1CCC[C@H]1C(=O)N[C@@H](Cc1c[nH]cn1)C(=O)N[C@@H](CCCNC(=N)N)C(=O)N1CCC[C@H]1C(=O)N[C@@H](CCCNC(=N)N)C(=O)N[C@@H](Cc1c[nH]cn1)C(=O)N[C@@H](CO)C(=O)N[C@@H](CCCNC(=N)N)C(=O)O | IL-1β secretion, ELISA | – | 30 µM, 4 to 12 h, with: LPS | – | inhibition | 30% |
| O=C1c2ccccc2NC(c2ccc(O)c(O)c2)N1/N=C/c1ccc(O)c(O)c1 (stereo not shown) | cell growth or viability, CCK-8 | – | 24 h | – | IC50 | 9500 nM |
| CC(C)C[C@@H]1NC(=O)[C@H](CC(C)C)NC(=O)[C@H](Cc2ccccc2)NC(=O)[C@@H]2CSSC[C@@H](C(=O)O)NC(=O)[C@H](CSSC[C@H](N)C(=O)N3CCC[C@H]3C(=O)N2)NC(=O)CNC1=O | cell adhesion | – | with: von Willebrand factor | – | IC50 | ~20000 nM |
| O=C1c2ccccc2NC(c2ccccc2O)N1/N=C/c1ccccc1O (stereo not shown) | cell growth or viability, CCK-8 | – | 24 h | – | IC50 | 9800 nM |
| NCCCCCCN1N=C(c2ccc(NC(=O)N3Cc4ccncc4C3)cc2)CC(c2cccc3ncccc23)C1=O (stereo not shown) | cell growth or viability, ATP luminescence | – | – | – | IC50 | < 0.003 nM |
| C(=C/c1ccccc1)/c1ccccc1 | apoptosis, refers to: caspase-3 activity | – | 24 h, lowest dose with significant induction | baseline: vehicle | lowest effective concentration | 50 µM |
| O=[N+]([O-])c1ccc2c(c1)C=[N+]1N3C(=[O+][Cu-2]1([Cl])[O]2)c1ccccc1NC3c1cc([N+](=O)[O-])ccc1O (stereo not shown) | cell growth or viability, CCK-8 | – | – | – | IC50 | 300 nM |
| COc1ccc(-c2cc(=O)c3c(O)c(OC)c(O)c(OC)c3o2)cc1O | antioxidant effect, OPT fluorometric glutathione, refers to: GSH/(GSH + GSSG) | cell extract | – | baseline: 1 = all glutathione reduced, higher = more antioxidant | Emax of redox index | 0.95 |
